Measurements gathered from unrelated publications.
Parts stem from different laboratories: compare values within a part only. Substitutions count along the parent as printed.

Series 1
Target: CCND2, cyclin fold, Cln2 fusion (human)
Technique: yeast growth competition, sequencing
Sample: yeast
Notes: weak parent motif
Relative to: not given
Reading: higher = stronger binding
Starting sequence: KIF20B docking peptide (human); KRAKRKLYTSEIS; partner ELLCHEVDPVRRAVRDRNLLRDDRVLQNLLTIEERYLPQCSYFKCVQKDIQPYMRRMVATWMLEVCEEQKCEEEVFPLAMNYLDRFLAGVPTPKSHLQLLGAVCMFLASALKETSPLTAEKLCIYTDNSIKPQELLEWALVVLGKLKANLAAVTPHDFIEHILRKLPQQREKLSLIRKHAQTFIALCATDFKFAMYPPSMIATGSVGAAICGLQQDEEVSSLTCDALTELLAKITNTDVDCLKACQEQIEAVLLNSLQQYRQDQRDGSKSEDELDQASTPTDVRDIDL
`E11A`: “normalised enrichment score” -0.00793.
`K6A`: “normalised enrichment score” 0.214.
`T9A` — result for “normalised enrichment score”: -0.0953.
Under “normalised enrichment score”, `S10A` is recorded as -0.197.
`R2A` — result for “normalised enrichment score”: -0.228.
Under “normalised enrichment score”, `K1A` is recorded as 0.467.

Series 2
Target: Histone acetyltransferase KAT6A, winged helix 1, GST fusion (KAT6A, Homo sapiens, UniProt Q92794, residues 1-85)
Technique: protein binding microarray
Molecule type: double-stranded DNA, one strand shown
Sample: in vitro
Concentration: not given
Notes: 8-mer, flanks averaged, mean of 2 arrays, mostly near background
Relative to: not given
Reading: higher = stronger binding
Target sequence (chain): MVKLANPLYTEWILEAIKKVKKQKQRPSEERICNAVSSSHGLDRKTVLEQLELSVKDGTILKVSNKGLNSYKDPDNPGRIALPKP
`TCAAGCCA` has an E-score of -0.12.
`ACGTGCTA` has an E-score of -0.027.
`CAATAGTC` has an E-score of -0.227.
`CAGACATA` gave an E-score of 0.113.
`GGGGTCGA` has an E-score of 0.0131.
The E-score of `TACGGTCA` is reported as 0.208.
`GCTATAGA` has an E-score of 0.0173.
`AACCATAT` gave an E-score of -0.146.
For `AGCTTTCC`, the E-score was 0.0238.
`CGCAGCGC` has an E-score of 0.403.
With `CTCTGAAG` the E-score was -0.0624.

Series 3
Target: BATF2, bZIP domain (human)
Technique: DHFR protein complementation
Sample: yeast
Notes: single substitutions, most at no-binding floor
Relative to: wild-type JUN-FOS pair
Reading: higher = stronger binding
Starting sequence: JUN, bZIP domain (human); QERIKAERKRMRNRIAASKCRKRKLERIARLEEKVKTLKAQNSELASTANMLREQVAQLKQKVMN; partner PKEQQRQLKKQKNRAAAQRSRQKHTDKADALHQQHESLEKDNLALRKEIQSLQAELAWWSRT
The binding fitness of `I28R` is reported as -0.403 natural log.
The binding fitness of `S43P` is reported as -1.37 natural log.
`Q55I` has a binding fitness of -0.92 natural log.
The binding fitness of `A57H` is reported as -0.39 natural log.
The binding fitness of `Q55T` is reported as -0.586 natural log.
`L31Y` has a binding fitness of -0.855 natural log.
With `L31M` the binding fitness was -0.32 natural log.
The binding fitness of `L59H` is reported as -0.661 natural log.
With `V35S` the binding fitness was -1.1 natural log.
`M51G` has a binding fitness of -0.383 natural log.
For `Q41V`, the binding fitness was -0.331 natural log.
`K34M` gave a binding fitness of -0.386 natural log.
The binding fitness of `L31C` is reported as -0.755 natural log.
`T37C` has a binding fitness of -0.187 natural log.
`L52Y` gave a binding fitness of -0.994 natural log.
The binding fitness of `R53A` is reported as -0.712 natural log.

Mixed results
`PhoQ, residues 284 288 289 292 302 303 QWGLFV` gave a fold induction of 0.894 (PhoP, residues 12 14 15 18 19 HEGLL (Escherichia coli, UniProt P23836); Sort-seq, measured: YFP reporter; E. coli; PhoQ-PhoP variant library, together with: 10 µM Mg2+; relative to: high Mg2+ state, higher = stronger signaling).

Repeated from above (series 3):
`T37C` has a binding fitness of -0.187 natural log.
`L52Y` gave a binding fitness of -0.994 natural log.
`M51G` has a binding fitness of -0.383 natural log.
